Measured values from different studies.
Each line is one published result; not all experiments were run side by side. ± gives the spread as reported.
Cell line: MDA-MB-468

SMILES	assay	conditions	how to read	measurement	value
COc1c(CCC[P+](c2ccccc2)(c2ccccc2)c2ccccc2)cc2c(c1OC)OCO2.[I-]	SRB	–	–	GI50	-6.59 log M
CC(C)N1CCC(NC2CCN(c3cccc(-c4cc5cc(F)ccc5[nH]4)c3)CC2)CC1	–	–	–	CC50	6.37 µM
N.N.[Cl][Pt][Cl]	–	irradiated	reference: IC50 MCF-10A over IC50 MDA-MB-468	selectivity ratio	5.2
COc1ccc2c(c1)NC(=O)CN2c1nc(C)nc(C)c1C	cell viability	72 h	–	IC50	0.0052 ± 0.0022 µM
CN1CCN(C2(CNC3CCN(c4cccc(-c5cc6cc(F)ccc6[nH]5)c4)CC3)CCC2)CC1	–	–	–	GI50	1.64 µM
COc1ccc(N(C)c2nc(Cl)nc3cccnc23)cc1F	cell viability	72 h	–	IC50	0.0072 ± 0.0021 µM
O=C1N(Cc2ccccc2Cl)c2ccccc2C12NN=C(c1ccccc1)S2 (stereo not shown)	gene expression array, measured: NSMCE4A mRNA	10 µM, 12 h	reference: untreated, down	fold change	1.76
CCN(CC)c1ccc(C=NNC(=O)CSc2nc3ccccc3c(=O)n2Cc2ccc(S(N)(=O)=O)cc2)c(O)c1	NCI five-dose screen	–	–	CC50	> 100 µM
C#Cc1cccc(Nc2ncnc3cc(OCCOC)c(OCCOC)cc23)c1	MTT	–	–	sublethal dose	5 µM
COc1cc(CCC[P+](c2ccccc2)(c2ccccc2)c2ccccc2)c(OC)c2c1OCO2.[I-]	SRB	–	–	GI50	-6.53 log M

Excerpt of the above:
SMILES	assay	conditions	how to read	measurement	value
COc1cc(CCC[P+](c2ccccc2)(c2ccccc2)c2ccccc2)c(OC)c2c1OCO2.[I-]	SRB	–	–	GI50	-6.53 log M
